Assay results collected from several papers.
Each numbered part is a random draw from the data of one study; scales do not carry over between parts. Substitutions count along the parent as printed.

Sample 1 — target: CCND3, cyclin fold, Cln2 fusion (human); technique: yeast growth competition, sequencing; matrix: yeast; setting: weak parent motif; relative to: not given; reading: higher = stronger binding
Starting sequence: CDKN1B docking peptide (human); PSACRNLFGPVDH; partner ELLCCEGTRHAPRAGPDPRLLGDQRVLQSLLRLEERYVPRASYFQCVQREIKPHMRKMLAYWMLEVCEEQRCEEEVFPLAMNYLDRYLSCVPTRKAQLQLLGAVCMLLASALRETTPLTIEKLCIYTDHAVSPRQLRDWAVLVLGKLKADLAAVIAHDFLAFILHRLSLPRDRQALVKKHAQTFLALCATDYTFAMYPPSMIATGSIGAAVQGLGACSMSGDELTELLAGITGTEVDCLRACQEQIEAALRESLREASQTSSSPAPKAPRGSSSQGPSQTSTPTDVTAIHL
`D12N` — result for “normalised enrichment score”: 0.188.
For `V11Q`, “normalised enrichment score” read 0.14.
For `C4I`, “normalised enrichment score” read 0.135.
For `V11Y`, “normalised enrichment score” read 0.0984.
For `P1H`, “normalised enrichment score” read 0.156.
`P1M`: “normalised enrichment score” 0.115.
For `P1A`, “normalised enrichment score” read 0.165.
`S2L`: “normalised enrichment score” 0.112.
`A3C` — result for “normalised enrichment score”: 0.127.
For `A3L`, “normalised enrichment score” read 0.0765.
Under “normalised enrichment score”, `H13Q` is recorded as 0.154.
For `D12C`, “normalised enrichment score” read 0.144.
`H13R` — result for “normalised enrichment score”: 0.129.
`C4P`: “normalised enrichment score” 0.135.

Sample 2 — technique: DHFR PCA, deep sequencing; matrix: yeast; with: (+)-ABA 0.0091 µM; relative to: wild-type fitted maximum; reading: higher = stronger binding
Target: ABI1, truncated, D143A, DHFR fusion (Arabidopsis thaliana)
Setting: methotrexate growth selection, single substitutions
Starting sequence: PYL1, truncated, DHFR fusion (Arabidopsis thaliana); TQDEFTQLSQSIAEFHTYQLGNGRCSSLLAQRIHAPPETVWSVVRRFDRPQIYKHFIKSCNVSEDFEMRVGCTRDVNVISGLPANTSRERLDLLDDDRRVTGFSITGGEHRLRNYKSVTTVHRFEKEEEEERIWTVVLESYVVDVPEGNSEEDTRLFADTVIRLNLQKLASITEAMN
Under “relative binding score”, `Q167M` is recorded as 19.4%.
For `T1F`, “relative binding score” read 16.8%.
For `G107L`, “relative binding score” read -5.91%.
`N61C`: “relative binding score” 31.1%.
For `G71Q`, “relative binding score” read 1.06%.
`R24F`: “relative binding score” -0.686%.
For `I105G`, “relative binding score” read 0.461%.
For `H122N`, “relative binding score” read 9.68%.
For `S59P`, “relative binding score” read 3.61%.
`L169I`: “relative binding score” -2.04%.
Under “relative binding score”, `E109Q` is recorded as 2.61%.

Sample 3 — technique: competition protein-binding microarray; form: double-stranded DNA, one strand shown; matrix: in vitro; tested at: 2 µM; with: Pho4 competitor, 0.05 µM; reading: higher = stronger binding
Target: Centromere-binding protein 1, full length, His-tagged (CBF1, Saccharomyces cerevisiae, UniProt P17106, residues 1-351)
UniProt P17106, sequence (whole entry, looked up): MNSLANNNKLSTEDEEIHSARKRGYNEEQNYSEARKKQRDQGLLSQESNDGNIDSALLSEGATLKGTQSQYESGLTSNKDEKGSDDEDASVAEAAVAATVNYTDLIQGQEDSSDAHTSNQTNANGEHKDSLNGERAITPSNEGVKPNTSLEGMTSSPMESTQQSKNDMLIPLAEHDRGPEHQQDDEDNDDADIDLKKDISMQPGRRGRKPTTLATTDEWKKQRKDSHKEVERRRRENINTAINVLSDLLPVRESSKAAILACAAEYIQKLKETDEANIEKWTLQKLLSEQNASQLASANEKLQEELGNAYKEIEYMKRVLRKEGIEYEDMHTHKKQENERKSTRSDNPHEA
Setting: whole 60-bp probe, lowest competitor level
The fluorescence intensity of `TCTCTGGCCCGAAACCTCGTGTTGGTACAAATCCTCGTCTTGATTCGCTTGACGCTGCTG` is reported as 107 a.u.
The fluorescence intensity of `AAATTACTAAGTTGGCTTGTGGGTGACGCCGTATGAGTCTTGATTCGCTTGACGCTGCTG` is reported as 73.3 a.u.
The fluorescence intensity of `TTGGTGAGCATTACCTACGTGTTGGGCACTACAACAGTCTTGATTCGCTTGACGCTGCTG` is reported as 75.3 a.u.
The fluorescence intensity of `CGGGGTTAAGTTTGTTCCGTGGGTGGCTTGCAGCAGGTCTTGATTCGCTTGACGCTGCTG` is reported as 59.4 a.u.
The fluorescence intensity of `GGTTTCTTATCAAGTGGCGTGCCAGGGCATCTACCAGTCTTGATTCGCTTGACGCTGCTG` is reported as 109 a.u.
`CGTCCTAGTGATTGTTTAGTGGGTGCCATGAGGAAGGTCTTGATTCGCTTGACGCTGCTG` gave a fluorescence intensity of 99.7 a.u.
For `GAACAACTGTATTGCCACATGGGCAGACCAGATCGGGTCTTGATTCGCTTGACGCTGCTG`, the fluorescence intensity was 85.1 a.u.
The fluorescence intensity of `CCGGTCAAGGTCTGGCACGTGGAGTCCAGGACATCCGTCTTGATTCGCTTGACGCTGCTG` is reported as 823 a.u.
With `TATGGCGAGCCACATCATGTGATTGCCGTTGAGGTTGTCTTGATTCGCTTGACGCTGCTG` the fluorescence intensity was 967 a.u.
`CTTTCCCGATCTTTTCACGTGCATTTAGCACATTTGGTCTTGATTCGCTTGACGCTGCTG` gave a fluorescence intensity of 931 a.u.
`AACGCGTCTTAAAAGAATGTGACAGGAGATGGGATGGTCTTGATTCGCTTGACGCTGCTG` has a fluorescence intensity of 94.6 a.u.
`ACAACTCCCAGCAGCCACGAGGAGCCCTAGGGCTTGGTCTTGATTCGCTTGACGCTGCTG` gave a fluorescence intensity of 61 a.u.
With `CCCTTAGACTTGCTGGGCGTGCGATTCAAGGGACAGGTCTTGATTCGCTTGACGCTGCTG` the fluorescence intensity was 58.5 a.u.
`ACTATTCGTCCGAGTCACGCATACGTTTGTCAGTGGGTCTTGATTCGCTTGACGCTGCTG` gave a fluorescence intensity of 214 a.u.
`ATCCGGAGCCCTCCACGCCTGCTAGCTTTGTGTTGGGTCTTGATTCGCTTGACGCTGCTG` has a fluorescence intensity of 53.5 a.u.

Sample 4 — technique: Sort-seq; item: YFP reporter; matrix: E. coli; setting: PhoQ-PhoP variant library; with: 10 µM Mg2+; relative to: high Mg2+ state; reading: higher = stronger signaling
Substance: PhoQ, residues 284 288 289 292 302 303 TTCLQL
PhoP, residues 12 14 15 18 19 VGHWL (Escherichia coli, UniProt P23836) — fold induction: 2.15.
For PhoP, residues 12 14 15 18 19 TPWTL (Escherichia coli, UniProt P23836): fold induction read 1.2.
For PhoP, residues 12 14 15 18 19 NFFVT (Escherichia coli, UniProt P23836): fold induction read 8.28.
